Measured values gathered from unrelated publications.
Numbered parts are unrelated; each lists some results of a single study. “And” joins repeats or separate records; there may be more than shown.
Sequence of UniProt Q9H2X6 (whole entry, looked up): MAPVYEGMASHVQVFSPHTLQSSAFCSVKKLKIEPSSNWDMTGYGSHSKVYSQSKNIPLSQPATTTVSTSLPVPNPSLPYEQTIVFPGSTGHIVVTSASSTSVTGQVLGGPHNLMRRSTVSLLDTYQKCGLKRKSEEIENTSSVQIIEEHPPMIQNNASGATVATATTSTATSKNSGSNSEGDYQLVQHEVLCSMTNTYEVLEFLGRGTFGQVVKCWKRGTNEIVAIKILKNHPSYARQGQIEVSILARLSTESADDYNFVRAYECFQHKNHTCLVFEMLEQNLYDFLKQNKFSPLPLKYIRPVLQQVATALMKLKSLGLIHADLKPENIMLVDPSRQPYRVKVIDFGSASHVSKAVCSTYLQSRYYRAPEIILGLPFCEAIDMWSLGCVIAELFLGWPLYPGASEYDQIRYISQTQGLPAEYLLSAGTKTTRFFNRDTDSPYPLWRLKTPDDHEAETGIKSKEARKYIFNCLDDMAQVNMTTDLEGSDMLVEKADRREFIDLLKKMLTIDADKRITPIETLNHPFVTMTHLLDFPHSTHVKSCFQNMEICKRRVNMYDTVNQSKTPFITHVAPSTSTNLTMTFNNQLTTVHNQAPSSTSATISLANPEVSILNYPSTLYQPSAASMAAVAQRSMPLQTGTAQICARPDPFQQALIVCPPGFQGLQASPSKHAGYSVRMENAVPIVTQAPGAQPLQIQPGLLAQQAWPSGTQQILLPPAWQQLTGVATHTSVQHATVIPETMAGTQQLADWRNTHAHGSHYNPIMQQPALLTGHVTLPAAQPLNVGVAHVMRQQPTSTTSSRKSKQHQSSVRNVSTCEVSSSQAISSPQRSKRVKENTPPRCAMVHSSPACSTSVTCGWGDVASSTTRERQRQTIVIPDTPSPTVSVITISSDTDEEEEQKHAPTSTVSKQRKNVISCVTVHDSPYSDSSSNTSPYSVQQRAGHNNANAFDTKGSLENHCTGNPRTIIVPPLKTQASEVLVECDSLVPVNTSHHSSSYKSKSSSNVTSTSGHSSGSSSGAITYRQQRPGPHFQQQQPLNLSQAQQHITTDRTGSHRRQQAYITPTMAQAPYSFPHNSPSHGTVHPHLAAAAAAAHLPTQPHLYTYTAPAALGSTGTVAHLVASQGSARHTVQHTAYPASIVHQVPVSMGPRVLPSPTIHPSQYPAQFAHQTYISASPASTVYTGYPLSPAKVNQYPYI
Sequence of UniProt P52564 (whole entry, looked up): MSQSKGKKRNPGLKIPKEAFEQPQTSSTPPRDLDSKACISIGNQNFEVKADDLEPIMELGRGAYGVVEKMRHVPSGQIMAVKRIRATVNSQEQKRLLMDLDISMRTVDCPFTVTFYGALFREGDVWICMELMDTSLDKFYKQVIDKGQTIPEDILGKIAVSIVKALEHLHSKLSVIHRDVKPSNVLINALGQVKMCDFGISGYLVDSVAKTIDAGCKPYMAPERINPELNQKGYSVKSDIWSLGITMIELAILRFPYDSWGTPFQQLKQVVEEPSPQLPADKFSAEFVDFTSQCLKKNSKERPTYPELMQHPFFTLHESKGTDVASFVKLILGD
Sequence of UniProt Q9UBE8 (whole entry, looked up): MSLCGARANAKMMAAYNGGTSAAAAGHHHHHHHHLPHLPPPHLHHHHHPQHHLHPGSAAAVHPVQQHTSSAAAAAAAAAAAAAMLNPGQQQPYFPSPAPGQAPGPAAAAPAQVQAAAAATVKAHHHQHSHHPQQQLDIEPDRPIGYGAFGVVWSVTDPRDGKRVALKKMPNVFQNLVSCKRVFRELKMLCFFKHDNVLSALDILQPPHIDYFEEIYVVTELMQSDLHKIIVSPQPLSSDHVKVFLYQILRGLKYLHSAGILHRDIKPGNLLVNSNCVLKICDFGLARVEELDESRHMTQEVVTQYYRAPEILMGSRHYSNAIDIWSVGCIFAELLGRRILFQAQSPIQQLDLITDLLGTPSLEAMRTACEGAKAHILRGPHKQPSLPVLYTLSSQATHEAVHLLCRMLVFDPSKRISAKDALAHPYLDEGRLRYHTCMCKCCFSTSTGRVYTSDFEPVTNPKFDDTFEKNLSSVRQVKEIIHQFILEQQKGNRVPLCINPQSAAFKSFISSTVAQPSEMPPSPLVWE

Study 1
Target: Calcium/calmodulin-dependent protein kinase type II subunit alpha (CAMK2A, Homo sapiens, UniProt Q9UQM7)
Sequence of UniProt Q9UQM7 (whole entry, looked up): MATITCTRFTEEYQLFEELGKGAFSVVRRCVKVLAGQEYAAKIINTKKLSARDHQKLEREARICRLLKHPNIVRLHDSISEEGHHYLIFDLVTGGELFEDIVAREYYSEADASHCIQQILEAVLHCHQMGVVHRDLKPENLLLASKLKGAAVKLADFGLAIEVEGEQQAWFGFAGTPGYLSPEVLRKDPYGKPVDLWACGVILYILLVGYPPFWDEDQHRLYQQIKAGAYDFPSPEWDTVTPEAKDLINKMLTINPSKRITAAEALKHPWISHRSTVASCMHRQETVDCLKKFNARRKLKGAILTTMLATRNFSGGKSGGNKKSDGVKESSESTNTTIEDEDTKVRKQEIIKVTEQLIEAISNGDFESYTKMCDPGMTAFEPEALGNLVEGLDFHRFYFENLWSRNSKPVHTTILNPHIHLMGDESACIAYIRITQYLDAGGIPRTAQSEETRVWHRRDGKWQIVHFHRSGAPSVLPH
Effect on: enzyme activity
Mode: inhibitor
Tested at: 10 µM
`CCC(=O)OCC(=O)[C@@]1(OC(=O)CC)[C@@H](C)C[C@H]2[C@@H]3CCC4=CC(=O)C=C[C@]4(C)[C@@]3(F)[C@@H](O)C[C@@]21C` gave an inhibition of 1%.
The inhibition of `Oc1c(Cl)cc(Cl)cc1Sc1cc(Cl)cc(Cl)c1O` is reported as -9%.
With `O=C(O)Cc1ccccc1O` the inhibition was -24%.
For `NNC(=O)c1ccncc1`, the inhibition was -12%.
For `CC(C)C[C@H](NP(=O)(O)O[C@@H]1O[C@@H](C)[C@H](O)[C@@H](O)[C@H]1O)C(=O)N[C@@H](Cc1c[nH]c2ccccc12)C(=O)O`, the inhibition was -36%.
`OC[C@H]1NC[C@H](O)[C@@H](O)[C@H]1O` gave an inhibition of -1%.
`CC(=O)N[C@H]1[C@@H](O)[C@H](O)[C@@H](CO)O[C@H]1O` gave an inhibition of 5%.
`O=C(O)CCCCCC(=O)O` gave an inhibition of 1%.
`COC(=O)c1cc(O)c(O)c(O)c1` gave an inhibition of -5%.
With `O=C(O)C(O)c1ccccc1` (stereo not drawn) the inhibition was 10%.
`CO[C@@H]1[C@H](O)[C@@H](CO)O[C@H]1n1ccc(=O)[nH]c1=O` has an inhibition of 24%.
`CCn1cc(C(=O)O)c(=O)c2cnc(N3CCNCC3)nc21` has an inhibition of 0%.
With `COc1ccc2cc3[n+](cc2c1OC)CCc1cc(O)c(O)cc1-3` the inhibition was -14%.
For `Cc1cc(=O)n(-c2ccccc2)n1C`, the inhibition was -8%.

Study 2
SMILES: Nc1c(C(=O)NCc2ccc(C(=O)NCCCC3CCCCC3)cc2)cnn1-c1ccccc1
Effect on: cell-free assay
Method: competition with immobilised ligand
Tested at: 0.1 µM
For Tyrosine-protein kinase Fes/Fps (FES, Homo sapiens, UniProt P07332): remaining binding read 100%.
The remaining binding was 100% (Receptor-type tyrosine-protein kinase FLT3 (FLT3, Homo sapiens, UniProt P36888, ITD)).
For TGF-beta receptor type-2 (TGFBR2, Homo sapiens, UniProt P37173): remaining binding read 99%.
The remaining binding was 100% (Tyrosine-protein kinase HCK (HCK, Homo sapiens, UniProt P08631)).
SRSF protein kinase 2 (SRPK2, Homo sapiens, UniProt P78362) — remaining binding: 100%.
For Epidermal growth factor receptor (EGFR, Homo sapiens, UniProt P00533, del747-752/P753S): remaining binding read 100%.
It gave 78% for remaining binding (Cyclin-dependent kinase 17 (CDK17, Homo sapiens, UniProt Q00537)).
Ephrin type-A receptor 5 (EPHA5, Homo sapiens, UniProt P54756) — remaining binding: 100%.
It gave 100% for remaining binding (Serine/threonine-protein kinase pim-2 (PIM2, Homo sapiens, UniProt Q9P1W9)).
It gave 100% for remaining binding (Mitogen-activated protein kinase kinase kinase 7 (MAP3K7, Homo sapiens, UniProt O43318)).
Fibroblast growth factor receptor 4 (FGFR4, Homo sapiens, UniProt P22455) — remaining binding: 97%.
The remaining binding was 100% (Homeodomain-interacting protein kinase 2 (HIPK2, Homo sapiens, UniProt Q9H2X6)).
It gave 79% for remaining binding (Serine/threonine-protein kinase BRSK2 (BRSK2, Homo sapiens, UniProt Q8IWQ3)).
It gave 96% for remaining binding (Serine/threonine-protein kinase NLK (NLK, Homo sapiens, UniProt Q9UBE8)).
The remaining binding was 78% (Mitogen-activated protein kinase 7 (MAPK7, Homo sapiens, UniProt Q13164)).
The remaining binding was 93% (Phosphatidylinositol 4-phosphate 5-kinase type-1 gamma (PIP5K1C, Homo sapiens, UniProt O60331)).
The remaining binding was 100% (Serine/threonine-protein kinase LATS2 (LATS2, Homo sapiens, UniProt Q9NRM7)).
The remaining binding was 96% (Cyclin-dependent kinase 2 (CDK2, Homo sapiens, UniProt P24941)).
It gave 97% for remaining binding (Dual specificity tyrosine-phosphorylation-regulated kinase 2 (DYRK2, Homo sapiens, UniProt Q92630)).
The remaining binding was 70% (Mast/stem cell growth factor receptor Kit (KIT, Homo sapiens, UniProt P10721)).
The remaining binding was 100% (Serine/threonine-protein kinase TNNI3K (TNNI3K, Homo sapiens, UniProt Q59H18)).
The remaining binding was 79% (Dual specificity mitogen-activated protein kinase kinase 6 (MAP2K6, Homo sapiens, UniProt P52564)).
Serine/threonine-protein kinase DCLK3 (DCLK3, Homo sapiens, UniProt Q9C098) — remaining binding: 100%.
Tyrosine-protein kinase receptor Tie-1 (TIE1, Homo sapiens, UniProt P35590) — remaining binding: 100%.
SRSF protein kinase 1 (SRPK1, Homo sapiens, UniProt Q96SB4) — remaining binding: 90%.

Study 3
Host: mouse
Medium: microsomes or S9
Tested at: 2 µM
Time: 0.5 h
The remaining compound of `CC(C)(C)c1csc(NNC(=O)c2ccc(Br)cc2)n1` is reported as < 1%.
For `CC(CC(=O)c1cccs1)NC(=O)C(C)n1cncn1` (stereo not drawn), the remaining compound was 95.6%.
For `Cc1nc(CN2CCN(c3cnc4ccccc4n3)CC2)oc1C`, the remaining compound was 83.6%.
`Cc1cc(C(=O)Nc2ccc3ccccc3c2)no1` has a remaining compound of 45.6%.
The remaining compound of `N#Cc1ccc(C(=O)OC2c3ccccc3-c3ccccc32)[nH]1` is reported as 0.206%.
`CC(C)Cn1c(NCCc2ccccc2)nc2c1c(O)nc(=O)n2C` gave a remaining compound of 8.53%.
The remaining compound of `CC(C)CCn1c(N2CCNCC2)nc2c1c(O)nc(=O)n2C` is reported as 74.8%.
The remaining compound of `COc1nc(OC)nc(Oc2ccc(NC(=O)c3c[nH]c4ccccc34)cc2)n1` is reported as 81.5%.
The remaining compound of `O=S1(=O)CCN(CC2CCCO2)c2c(Oc3ccc(F)cc3)nc(F)c(Cl)c21` (stereo not drawn) is reported as 5.87%.
With `Cc1onc(-c2ccccc2)c1C(=O)Nc1ccon1` the remaining compound was 1.6%.
`O=C(CCCOc1ccc(Cl)cc1Cl)Nc1ccc2c(c1)COC2=O` gave a remaining compound of 65.7%.
For `CCc1c(C)sc(NC(=O)CN2CCN(C(=O)C3CCCO3)CC2)c1C(=O)OC` (stereo not drawn), the remaining compound was 0.00886%.
With `COc1c(Cl)ccc(C2=NOC(c3cc(N)c(Cl)c(C(=O)O)n3)C2)c1F` (stereo not drawn) the remaining compound was 82.3%.
With `COC(=O)CCN(Cc1ccncc1)c1ncnc2c(F)cccc12` the remaining compound was > 99.9%.

Study 4
Target: DNA polymerase theta, ATPase domain (POLQ, Homo sapiens, UniProt O75417)
Sequence of UniProt O75417 (whole entry, unmodified, looked up): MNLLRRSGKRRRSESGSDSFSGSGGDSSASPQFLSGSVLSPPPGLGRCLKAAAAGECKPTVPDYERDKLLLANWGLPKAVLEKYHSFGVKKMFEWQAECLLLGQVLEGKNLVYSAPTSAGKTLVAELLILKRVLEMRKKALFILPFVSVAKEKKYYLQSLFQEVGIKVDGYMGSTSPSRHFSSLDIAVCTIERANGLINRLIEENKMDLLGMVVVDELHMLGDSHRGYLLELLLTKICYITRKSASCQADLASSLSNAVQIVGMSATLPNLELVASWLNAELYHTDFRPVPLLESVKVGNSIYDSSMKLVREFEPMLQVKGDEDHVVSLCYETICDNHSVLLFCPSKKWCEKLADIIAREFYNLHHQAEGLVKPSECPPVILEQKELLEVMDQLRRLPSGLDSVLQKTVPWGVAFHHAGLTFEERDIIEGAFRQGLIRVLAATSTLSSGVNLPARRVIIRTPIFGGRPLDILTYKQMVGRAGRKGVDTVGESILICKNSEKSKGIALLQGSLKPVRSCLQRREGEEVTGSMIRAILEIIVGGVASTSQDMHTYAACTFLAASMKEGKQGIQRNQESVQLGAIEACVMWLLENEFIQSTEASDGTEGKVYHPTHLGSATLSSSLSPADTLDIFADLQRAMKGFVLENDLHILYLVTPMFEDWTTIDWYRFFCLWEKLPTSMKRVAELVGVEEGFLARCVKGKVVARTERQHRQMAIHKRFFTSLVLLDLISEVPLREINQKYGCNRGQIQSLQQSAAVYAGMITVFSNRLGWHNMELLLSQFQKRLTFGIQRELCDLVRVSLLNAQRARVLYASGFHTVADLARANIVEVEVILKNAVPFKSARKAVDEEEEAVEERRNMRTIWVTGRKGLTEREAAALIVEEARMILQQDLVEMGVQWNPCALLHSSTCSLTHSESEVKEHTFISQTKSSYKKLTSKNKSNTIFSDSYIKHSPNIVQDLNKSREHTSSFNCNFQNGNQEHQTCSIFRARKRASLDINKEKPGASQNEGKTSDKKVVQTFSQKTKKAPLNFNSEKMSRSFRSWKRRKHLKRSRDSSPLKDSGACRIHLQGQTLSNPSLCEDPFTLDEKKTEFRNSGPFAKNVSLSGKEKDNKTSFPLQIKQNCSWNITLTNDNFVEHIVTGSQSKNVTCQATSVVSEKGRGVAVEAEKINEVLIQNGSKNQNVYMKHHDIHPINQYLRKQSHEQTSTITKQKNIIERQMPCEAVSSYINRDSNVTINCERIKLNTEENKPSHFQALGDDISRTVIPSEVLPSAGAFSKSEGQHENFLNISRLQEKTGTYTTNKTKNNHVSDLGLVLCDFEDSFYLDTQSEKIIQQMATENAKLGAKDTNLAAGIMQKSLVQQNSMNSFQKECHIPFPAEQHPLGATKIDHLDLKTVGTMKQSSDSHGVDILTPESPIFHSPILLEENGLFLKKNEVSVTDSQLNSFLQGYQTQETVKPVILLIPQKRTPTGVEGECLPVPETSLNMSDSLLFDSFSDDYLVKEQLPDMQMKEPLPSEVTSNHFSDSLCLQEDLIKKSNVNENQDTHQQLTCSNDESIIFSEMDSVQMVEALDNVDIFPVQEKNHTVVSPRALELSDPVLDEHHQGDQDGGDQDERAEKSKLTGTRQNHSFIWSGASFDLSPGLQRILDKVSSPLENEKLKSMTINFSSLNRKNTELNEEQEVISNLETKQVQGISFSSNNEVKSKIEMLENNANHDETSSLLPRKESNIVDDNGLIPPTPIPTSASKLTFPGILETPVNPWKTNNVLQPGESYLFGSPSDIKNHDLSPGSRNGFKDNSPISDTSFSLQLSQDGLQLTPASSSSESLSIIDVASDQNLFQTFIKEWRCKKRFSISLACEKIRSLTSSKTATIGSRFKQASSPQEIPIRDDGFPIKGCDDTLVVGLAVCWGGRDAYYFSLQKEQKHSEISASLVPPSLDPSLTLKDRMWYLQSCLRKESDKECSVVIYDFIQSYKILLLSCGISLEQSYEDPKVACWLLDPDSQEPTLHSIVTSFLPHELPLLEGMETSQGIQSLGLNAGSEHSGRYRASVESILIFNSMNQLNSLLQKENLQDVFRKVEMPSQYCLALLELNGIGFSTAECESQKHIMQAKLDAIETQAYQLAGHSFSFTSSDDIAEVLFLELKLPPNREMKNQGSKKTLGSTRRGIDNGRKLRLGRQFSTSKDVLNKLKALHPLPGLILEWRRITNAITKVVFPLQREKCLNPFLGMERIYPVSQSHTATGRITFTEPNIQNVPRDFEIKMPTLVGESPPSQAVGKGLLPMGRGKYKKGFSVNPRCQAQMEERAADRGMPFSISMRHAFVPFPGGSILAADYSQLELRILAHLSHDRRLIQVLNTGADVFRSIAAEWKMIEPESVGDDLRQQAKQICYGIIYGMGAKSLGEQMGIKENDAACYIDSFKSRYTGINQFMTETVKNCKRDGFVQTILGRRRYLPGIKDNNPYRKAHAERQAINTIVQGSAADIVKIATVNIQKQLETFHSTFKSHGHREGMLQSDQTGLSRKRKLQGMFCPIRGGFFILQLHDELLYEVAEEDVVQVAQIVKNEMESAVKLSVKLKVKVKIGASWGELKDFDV
Effect on: enzyme activity
Mode: inhibitor
Tested at: 77 µM
Reference: untreated
The remaining activity of `O=C(O)/C=C/C(=O)O` is reported as 95.9%.
With `COc1cc(-c2ccc(/N=N/c3ccc4c(S(=O)(=O)O)cc(S(=O)(=O)O)c(N)c4c3O)c(OC)c2)ccc1/N=N/c1ccc2c(S(=O)(=O)O)cc(S(=O)(=O)O)c(N)c2c1O` the remaining activity was 81.7%.
For `c1ccc([C@H]2CN3CCSC3=N2)cc1`, the remaining activity was 96.1%.
With `Cc1nc(Nc2ncc(C(=O)Nc3c(C)cccc3Cl)s2)cc(N2CCN(CCO)CC2)n1` the remaining activity was 99.6% and 95.9% and 94.4% and 97.3%.
For `Cc1nnc(NS(=O)(=O)c2ccc(N)cc2)s1`, the remaining activity was 98.7% and 99.3%.
`CCCCCCCCCCCCCCCC(=O)OC(CC(=O)O)C[N+](C)(C)C` (racemic) has a remaining activity of 100%.
`CCN(CC)C(=O)N1CCN(C)CC1` gave a remaining activity of 103%.
With `O=c1[nH]c(=S)[nH]c(-c2ccccc2)c1Cc1c(O)ccc2ccccc12` the remaining activity was 107%.
`CO[C@@H](C(=O)N1Cc2[nH]nc(NC(=O)c3ccc(N4CCN(C)CC4)cc3)c2C1)c1ccccc1` has a remaining activity of 69.2% and 97.8% and 101% and 88.4%.
`O=C(O)C1CCCNC1` (stereo not drawn) has a remaining activity of 104%.
For `C/C(=C\c1ccc(C(=O)O)cc1)c1ccc2c(c1)C(C)(C)CCC2(C)C`, the remaining activity was 94.6% and 94.4%.
`O=c1[nH]ccc2c(O)cccc12` has a remaining activity of 108%.
`C[N+]1(C)CCCC(OC(=O)C(O)(c2ccccc2)c2ccccc2)C1` (stereo not drawn) has a remaining activity of 108%.
`CC(C)c1cnn2c(NCc3ccccc3)cc(NCCCCCCN)nc12` gave a remaining activity of 90.9%.
For `Nc1cccc2c1C(=O)N(C1CCC(=O)NC1=O)C2=O` (stereo not drawn), the remaining activity was 98.4%.
`CC(CCc1ccccc1)NCC(O)c1ccc(O)c(C(N)=O)c1` (stereo not drawn) has a remaining activity of 102%.

Excerpt of the above (study 2):
Serine/threonine-protein kinase DCLK3 (DCLK3, Homo sapiens, UniProt Q9C098) — remaining binding: 100%.
The remaining binding was 100% (Tyrosine-protein kinase HCK (HCK, Homo sapiens, UniProt P08631)).
SRSF protein kinase 2 (SRPK2, Homo sapiens, UniProt P78362) — remaining binding: 100%.
The remaining binding was 100% (Serine/threonine-protein kinase TNNI3K (TNNI3K, Homo sapiens, UniProt Q59H18)).
It gave 100% for remaining binding (Mitogen-activated protein kinase kinase kinase 7 (MAP3K7, Homo sapiens, UniProt O43318)).
